Measured values pooled from the literature.
Several values in a cell are separate wells, animals, samples, runs or records. Numbers after ± are the reported error.
CNR1: Cannabinoid receptor 1 (CNR1, Homo sapiens, UniProt P21554)
UniProt P21554, sequence (whole entry, unmodified, looked up): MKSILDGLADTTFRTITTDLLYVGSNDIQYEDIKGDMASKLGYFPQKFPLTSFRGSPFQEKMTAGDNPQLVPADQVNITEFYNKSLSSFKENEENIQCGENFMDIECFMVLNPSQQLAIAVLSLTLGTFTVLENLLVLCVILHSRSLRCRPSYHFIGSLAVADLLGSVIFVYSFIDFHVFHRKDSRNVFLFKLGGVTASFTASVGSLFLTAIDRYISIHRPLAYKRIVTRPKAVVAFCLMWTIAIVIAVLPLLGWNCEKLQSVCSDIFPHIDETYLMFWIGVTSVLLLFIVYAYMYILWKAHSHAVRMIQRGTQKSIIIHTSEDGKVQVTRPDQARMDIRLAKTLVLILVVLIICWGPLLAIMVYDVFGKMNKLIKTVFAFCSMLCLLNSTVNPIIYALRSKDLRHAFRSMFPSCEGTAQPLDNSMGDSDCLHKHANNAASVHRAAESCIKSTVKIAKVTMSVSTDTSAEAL
embR: Transcriptional regulatory protein EmbR (embR, Mycobacterium tuberculosis, UniProt P9WGJ9)
UniProt P9WGJ9, sequence (whole entry, looked up): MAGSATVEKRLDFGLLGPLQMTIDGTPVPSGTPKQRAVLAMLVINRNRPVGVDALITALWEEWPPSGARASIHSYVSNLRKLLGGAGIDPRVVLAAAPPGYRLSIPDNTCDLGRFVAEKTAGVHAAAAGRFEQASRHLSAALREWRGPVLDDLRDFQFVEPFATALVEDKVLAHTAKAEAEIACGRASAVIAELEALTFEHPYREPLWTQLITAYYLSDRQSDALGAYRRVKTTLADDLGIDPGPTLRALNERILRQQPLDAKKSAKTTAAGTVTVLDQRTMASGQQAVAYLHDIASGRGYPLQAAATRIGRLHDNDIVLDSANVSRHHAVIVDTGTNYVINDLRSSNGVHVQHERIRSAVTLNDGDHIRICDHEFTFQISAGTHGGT
UniProt Q01959, sequence (whole entry, looked up): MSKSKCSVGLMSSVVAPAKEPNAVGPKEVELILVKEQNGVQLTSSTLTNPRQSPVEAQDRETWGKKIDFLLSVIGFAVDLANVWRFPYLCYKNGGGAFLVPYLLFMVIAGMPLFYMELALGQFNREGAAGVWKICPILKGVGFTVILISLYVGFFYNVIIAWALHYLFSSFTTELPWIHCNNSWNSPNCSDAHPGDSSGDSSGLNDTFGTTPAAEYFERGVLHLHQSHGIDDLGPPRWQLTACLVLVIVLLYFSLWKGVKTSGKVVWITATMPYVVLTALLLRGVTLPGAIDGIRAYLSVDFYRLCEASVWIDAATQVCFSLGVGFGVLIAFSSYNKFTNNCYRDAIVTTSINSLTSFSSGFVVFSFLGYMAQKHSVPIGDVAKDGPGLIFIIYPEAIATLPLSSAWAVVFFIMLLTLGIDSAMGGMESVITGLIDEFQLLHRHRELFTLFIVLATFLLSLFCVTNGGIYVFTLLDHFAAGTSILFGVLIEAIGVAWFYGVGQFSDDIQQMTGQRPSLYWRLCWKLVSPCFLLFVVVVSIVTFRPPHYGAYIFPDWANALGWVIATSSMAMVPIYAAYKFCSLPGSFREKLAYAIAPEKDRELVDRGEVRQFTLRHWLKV
UniProt O60285, sequence (whole entry, looked up): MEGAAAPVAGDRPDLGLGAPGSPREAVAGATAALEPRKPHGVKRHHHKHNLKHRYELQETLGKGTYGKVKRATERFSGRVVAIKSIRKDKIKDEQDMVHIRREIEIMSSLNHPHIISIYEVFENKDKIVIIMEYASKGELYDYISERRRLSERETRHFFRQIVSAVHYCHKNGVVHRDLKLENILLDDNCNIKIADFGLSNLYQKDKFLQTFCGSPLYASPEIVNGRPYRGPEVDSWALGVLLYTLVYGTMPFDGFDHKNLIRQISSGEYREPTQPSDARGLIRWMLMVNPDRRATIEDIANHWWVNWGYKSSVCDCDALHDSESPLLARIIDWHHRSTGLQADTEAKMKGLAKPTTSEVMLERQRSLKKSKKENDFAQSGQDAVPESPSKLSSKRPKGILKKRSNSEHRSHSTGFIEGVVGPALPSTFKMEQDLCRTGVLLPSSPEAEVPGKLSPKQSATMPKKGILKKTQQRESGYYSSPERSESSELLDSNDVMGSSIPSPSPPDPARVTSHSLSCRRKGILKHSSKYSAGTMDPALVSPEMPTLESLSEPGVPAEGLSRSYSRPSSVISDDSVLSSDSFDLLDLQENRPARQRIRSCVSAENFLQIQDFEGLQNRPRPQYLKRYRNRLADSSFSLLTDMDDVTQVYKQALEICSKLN
UniProt P25123, sequence (whole entry, looked up): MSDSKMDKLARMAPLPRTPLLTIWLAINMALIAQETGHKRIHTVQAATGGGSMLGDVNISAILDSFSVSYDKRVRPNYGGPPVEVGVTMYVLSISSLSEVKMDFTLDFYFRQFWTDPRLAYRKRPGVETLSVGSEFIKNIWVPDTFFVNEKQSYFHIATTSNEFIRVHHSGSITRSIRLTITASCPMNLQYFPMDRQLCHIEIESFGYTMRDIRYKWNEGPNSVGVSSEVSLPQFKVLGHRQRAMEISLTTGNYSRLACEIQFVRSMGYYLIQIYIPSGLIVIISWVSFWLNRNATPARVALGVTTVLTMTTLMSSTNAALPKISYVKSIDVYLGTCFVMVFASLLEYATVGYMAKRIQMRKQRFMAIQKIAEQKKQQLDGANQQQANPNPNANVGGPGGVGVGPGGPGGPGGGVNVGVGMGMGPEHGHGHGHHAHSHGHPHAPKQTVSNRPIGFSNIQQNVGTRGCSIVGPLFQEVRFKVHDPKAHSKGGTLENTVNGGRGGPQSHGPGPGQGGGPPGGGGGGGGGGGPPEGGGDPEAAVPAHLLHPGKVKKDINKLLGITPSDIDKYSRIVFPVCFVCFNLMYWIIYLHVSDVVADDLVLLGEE
UniProt Q02294, sequence (whole entry, looked up): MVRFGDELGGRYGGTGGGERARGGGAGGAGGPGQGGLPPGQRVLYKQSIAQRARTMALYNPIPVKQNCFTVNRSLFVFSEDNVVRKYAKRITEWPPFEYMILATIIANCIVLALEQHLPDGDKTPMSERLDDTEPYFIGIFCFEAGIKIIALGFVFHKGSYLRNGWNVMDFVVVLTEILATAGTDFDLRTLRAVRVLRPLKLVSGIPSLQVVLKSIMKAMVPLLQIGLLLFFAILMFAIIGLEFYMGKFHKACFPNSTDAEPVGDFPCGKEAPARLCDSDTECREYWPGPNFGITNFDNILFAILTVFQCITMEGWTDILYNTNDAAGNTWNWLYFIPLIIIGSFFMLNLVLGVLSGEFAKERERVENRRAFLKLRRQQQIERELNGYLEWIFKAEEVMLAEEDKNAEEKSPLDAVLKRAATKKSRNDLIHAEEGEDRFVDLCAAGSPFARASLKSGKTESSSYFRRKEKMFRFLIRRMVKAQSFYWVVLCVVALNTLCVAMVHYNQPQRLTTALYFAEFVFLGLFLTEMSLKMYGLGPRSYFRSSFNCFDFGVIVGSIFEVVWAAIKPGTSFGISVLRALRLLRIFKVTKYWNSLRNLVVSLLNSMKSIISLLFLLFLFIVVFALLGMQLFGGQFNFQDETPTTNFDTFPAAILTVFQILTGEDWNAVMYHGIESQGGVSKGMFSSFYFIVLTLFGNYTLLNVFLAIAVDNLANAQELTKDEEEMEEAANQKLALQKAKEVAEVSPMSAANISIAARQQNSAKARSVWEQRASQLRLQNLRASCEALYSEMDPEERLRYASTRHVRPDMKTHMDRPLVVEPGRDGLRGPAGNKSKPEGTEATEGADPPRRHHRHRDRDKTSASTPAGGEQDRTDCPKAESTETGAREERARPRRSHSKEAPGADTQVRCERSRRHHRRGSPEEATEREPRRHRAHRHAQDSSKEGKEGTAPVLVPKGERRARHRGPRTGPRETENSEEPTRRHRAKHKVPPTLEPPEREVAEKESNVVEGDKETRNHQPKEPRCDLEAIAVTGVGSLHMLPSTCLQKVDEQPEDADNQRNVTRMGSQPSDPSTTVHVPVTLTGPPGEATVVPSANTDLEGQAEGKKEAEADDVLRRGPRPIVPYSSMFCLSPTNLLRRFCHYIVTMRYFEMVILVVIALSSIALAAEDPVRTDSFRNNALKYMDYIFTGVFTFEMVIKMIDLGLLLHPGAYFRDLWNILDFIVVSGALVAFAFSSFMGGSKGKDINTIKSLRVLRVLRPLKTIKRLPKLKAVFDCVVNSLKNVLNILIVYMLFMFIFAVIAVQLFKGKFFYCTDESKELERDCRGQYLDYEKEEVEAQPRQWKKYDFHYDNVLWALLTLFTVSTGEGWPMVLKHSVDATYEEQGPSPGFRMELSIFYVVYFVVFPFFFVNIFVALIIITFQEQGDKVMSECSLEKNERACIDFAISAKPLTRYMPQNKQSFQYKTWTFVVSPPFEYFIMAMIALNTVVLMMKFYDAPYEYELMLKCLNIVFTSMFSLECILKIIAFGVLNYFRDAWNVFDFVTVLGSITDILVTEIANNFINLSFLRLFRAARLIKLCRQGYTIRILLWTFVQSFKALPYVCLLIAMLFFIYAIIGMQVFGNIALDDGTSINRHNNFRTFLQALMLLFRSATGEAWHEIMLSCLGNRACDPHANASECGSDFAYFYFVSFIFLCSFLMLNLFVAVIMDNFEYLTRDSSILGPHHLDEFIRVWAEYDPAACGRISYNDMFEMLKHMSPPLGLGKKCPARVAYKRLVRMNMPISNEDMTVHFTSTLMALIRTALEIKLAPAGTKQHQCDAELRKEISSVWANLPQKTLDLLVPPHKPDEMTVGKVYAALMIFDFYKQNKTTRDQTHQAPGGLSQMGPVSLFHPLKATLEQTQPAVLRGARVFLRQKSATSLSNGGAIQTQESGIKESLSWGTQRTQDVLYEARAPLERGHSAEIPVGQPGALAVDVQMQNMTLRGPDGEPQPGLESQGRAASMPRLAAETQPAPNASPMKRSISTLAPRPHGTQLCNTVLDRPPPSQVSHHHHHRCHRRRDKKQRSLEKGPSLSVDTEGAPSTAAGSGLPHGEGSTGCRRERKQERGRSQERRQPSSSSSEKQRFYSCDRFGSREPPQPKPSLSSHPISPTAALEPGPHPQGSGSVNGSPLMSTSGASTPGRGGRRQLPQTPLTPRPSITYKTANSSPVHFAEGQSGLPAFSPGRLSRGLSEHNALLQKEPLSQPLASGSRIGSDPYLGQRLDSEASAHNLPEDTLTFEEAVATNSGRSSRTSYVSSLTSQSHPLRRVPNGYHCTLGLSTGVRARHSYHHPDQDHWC

Compound	target or system	test	system	conditions	how to read	quantity	value
O=C1NC(=O)c2c1c1cc(F)c[n+]3c1c1c2c2cc(O)ccc2[n]1[Ru-4]312([N]=C=S)[S+]3CC[S+]1CC[S+]2CC3 (stereo not shown)	RIPK2 (Homo sapiens, UniProt O43353)	enzyme activity		100 nM, human enzyme, together with: 10 µM ATP	baseline: untreated	remaining activity	87%
CCCCCn1cc(C(=O)c2ccc3c(c2)CC(C)(C)C3)c2ccccc21	CNR1	GαoA activation, agonist, BRET			baseline: reference agonist	Emax	3.7 ± 3.4%
O=[N+]([O-])CC(c1ccco1)c1c(-c2ccccc2)[nH]c2ccccc12 (stereo not shown)	CNR1 (Homo sapiens, UniProt P21554, I245F)	Gαi1-γ2 dissociation, BRET				Emax	130 ± 8.77%
Cc1cc(Oc2nc(N3CC[C@@H](c4ccncc4)C3)ncc2F)[nH]n1	Mycobacterium tuberculosis		THP-1, H37Rv non-replicating	0.3001 µM, day 4		normalised growth	1.89% and 7.55%
C=C(C)C1C2OC(=O)C1C1(O)CC3OC34C(=O)OC2C14C (stereo not shown)	Rdl (Drosophila melanogaster, UniProt P25123)	ion current, inhibitor, two-electrode voltage clamp		IC50, together with: GABA at EC50		time constant of onset	6.2 ± 1.3 s
COc1ccccc1C(C[N+](=O)[O-])c1c(-c2ccccc2)[nH]c2ccccc12 (stereo not shown)	CNR1 (Homo sapiens, UniProt P21554, F191A)	Gαi1-γ2 dissociation, BRET				Emax	68 ± 3.69%
CS(C)(=O)=Nc1ccc(-c2ccc(-c3nc4cc(O[C@@H]5CO[C@H]6[C@@H]5OC[C@H]6O)[nH]c4cc3F)cc2)cc1	NUAK1 (Homo sapiens, UniProt O60285)	enzyme activity, inhibitor		10 µM		inhibition	8%
CC(C)C[C@H](NC(=O)[C@H](C)NC(=O)[C@H](CCC(=O)O)NC(=O)[C@@H](N)Cc1c[nH]cn1)C(=O)N[C@@H](COP(=O)(O)O)C(=O)N[C@@H](CC(=O)O)C(=O)N1CCC[C@H]1C(=O)N[C@@H](CC(=O)O)C(=O)O	embR	binding				kon	1080 ± 180 M⁻¹ s⁻¹
Cc1ccc(N2CC(N(C)C)C2)cc1C(=O)N[C@H](C)c1cc(-c2cnn(C)c2)nc2ccccc12	Vero E6			125 µM		viability	95.1% and 92.5% and 98.9%
Nc1ccc(/C=C/C(=O)N2CCc3c(oc4c(-c5ccc(F)cc5)cc(-c5ccc(C(=O)N6CCC(F)(F)CC6)cn5)cc34)C2)cn1	MKNK1 (Homo sapiens, UniProt Q9BUB5)	binding, competition with immobilised ligand		1 µM		remaining binding	100%
CCCCCn1cc(C(=O)c2cccc3c2CC(C)(C)C3)c2ccccc21	CNR1	agonist, BRET			baseline: Gαi1 over β-arrestin 2, reference agonist	bias factor (ΔΔlog(Emax/EC50))	0.57
CC(C)C[C@H](NC(=O)[C@@H](N)CO)C(=O)N[C@@H](CCC(=O)O)C(=O)N[C@H](C(=O)N[C@H](C(=O)N[C@@H](CCC(=O)O)C(=O)N[C@@H](C)C(=O)N[C@@H](CC(=O)O)C(=O)O)[C@@H](C)OP(=O)(O)O)C(C)C	embR	biolayer interferometry				koff	0.00031 ± 5e-06 s⁻¹
Cc1c(-c2ccc(N3CCCCC3)cc2)[nH]c2cc(F)cc(F)c2c1=O	cydA, with subunit CydB (Mycobacterium tuberculosis, UniProt L7N662)	inhibitor		110 nM		specific activity	8.5 ± 0.2 µmol/min/mg
Cc1ccc(OC2CN(C)C2)cc1C(=O)N[C@H](C)c1cc(-c2cnn(C)c2)nc2ccccc12	Vero E6			250 µM		viability	0.165% and 0.33% and 0%
CCCCCn1cc(C(=O)c2cccc3ccccc23)c2ccccc21	CNR1 (Homo sapiens, UniProt P21554, F177A)	Gαi1 engagement, agonist, BRET			baseline: reference agonist at wild-type CB1	Emax	-4.2 ± 1.8%
CCOCC1C(c2ccc(Cl)c(Cl)c2)CC2CCC1N2C (stereo not shown)	SLC6A3 (Homo sapiens, UniProt Q01959)	dopamine uptake		0.0001 µM, 0.03333 h, together with: [3H]dopamine	baseline: no inhibitor	remaining activity	105%
Cc1ccc2c(C(C[N+](=O)[O-])c3cccs3)c(-c3ccccc3)[nH]c2c1 (stereo not shown)	CNR1 (Homo sapiens, UniProt P21554, V249A)	β-arrestin recruitment, agonist, luciferase				Emax	224%
CCn1ncc2ccc(NS(=O)(=O)c3cc([N+](=O)[O-])cc(Cl)c3F)cc21	kasA (Mycobacterium tuberculosis, UniProt P9WQD9)	thermal stabilization, nanoDSF		100 µM		ΔTm	-0.87 °C
CC(C)CC(C(=O)N1CC2(CC1C#N)C(=O)Nc1ccccc12)N(C)C(=O)c1cc2c(F)cc(F)c(F)c2[nH]1 (stereo not shown)	Replicase polyprotein 1ab, main protease (Human coronavirus OC43, UniProt P0C6X6)	enzyme activity		0.01001 µM		remaining activity	22.9%
Cc1sc2c(c1C)C(c1ccc(Cl)cc1)=NC(CC(=O)OC(C)(C)C)c1nnc(C)n1-2 (stereo not shown)	Oprk1 (Rattus norvegicus, UniProt P34975)	radioligand binding		1 µM		specific binding	96.8%
O=C1NC2(CC2)COc2ncc(F)cc2[C@H]2COCCN2c2ccn3ncc1c3n2			Sprague-Dawley rat, female, kidneys	oral, 5 mg/kg/day, 4 weeks, end of treatment		organ-to-body weight ratio	0.62 ± 0.061%
CN[C@@H]1[C@H](O)[C@H](NC)[C@H]2O[C@]3(O)[C@H](O[C@@H]2[C@H]1O)O[C@H](C)C[C@H]3NC(=O)Cc1cc(Cl)ccn1	Cacna1b (Rattus norvegicus, UniProt Q02294)	cell-free assay		10 µM		inhibition	2%

A few entries again:
Compound	target or system	test	system	conditions	how to read	quantity	value
CCCCCn1cc(C(=O)c2cccc3ccccc23)c2ccccc21	CNR1 (Homo sapiens, UniProt P21554, F177A)	Gαi1 engagement, agonist, BRET			baseline: reference agonist at wild-type CB1	Emax	-4.2 ± 1.8%
Nc1ccc(/C=C/C(=O)N2CCc3c(oc4c(-c5ccc(F)cc5)cc(-c5ccc(C(=O)N6CCC(F)(F)CC6)cn5)cc34)C2)cn1	MKNK1 (Homo sapiens, UniProt Q9BUB5)	binding, competition with immobilised ligand		1 µM		remaining binding	100%
